Measurements of several laboratories.
Numbered parts are unrelated; each lists some results of a single study. Several values in a cell are separate wells, animals, samples, runs or records.
Chain of UniProt P23458 (whole entry, looked up): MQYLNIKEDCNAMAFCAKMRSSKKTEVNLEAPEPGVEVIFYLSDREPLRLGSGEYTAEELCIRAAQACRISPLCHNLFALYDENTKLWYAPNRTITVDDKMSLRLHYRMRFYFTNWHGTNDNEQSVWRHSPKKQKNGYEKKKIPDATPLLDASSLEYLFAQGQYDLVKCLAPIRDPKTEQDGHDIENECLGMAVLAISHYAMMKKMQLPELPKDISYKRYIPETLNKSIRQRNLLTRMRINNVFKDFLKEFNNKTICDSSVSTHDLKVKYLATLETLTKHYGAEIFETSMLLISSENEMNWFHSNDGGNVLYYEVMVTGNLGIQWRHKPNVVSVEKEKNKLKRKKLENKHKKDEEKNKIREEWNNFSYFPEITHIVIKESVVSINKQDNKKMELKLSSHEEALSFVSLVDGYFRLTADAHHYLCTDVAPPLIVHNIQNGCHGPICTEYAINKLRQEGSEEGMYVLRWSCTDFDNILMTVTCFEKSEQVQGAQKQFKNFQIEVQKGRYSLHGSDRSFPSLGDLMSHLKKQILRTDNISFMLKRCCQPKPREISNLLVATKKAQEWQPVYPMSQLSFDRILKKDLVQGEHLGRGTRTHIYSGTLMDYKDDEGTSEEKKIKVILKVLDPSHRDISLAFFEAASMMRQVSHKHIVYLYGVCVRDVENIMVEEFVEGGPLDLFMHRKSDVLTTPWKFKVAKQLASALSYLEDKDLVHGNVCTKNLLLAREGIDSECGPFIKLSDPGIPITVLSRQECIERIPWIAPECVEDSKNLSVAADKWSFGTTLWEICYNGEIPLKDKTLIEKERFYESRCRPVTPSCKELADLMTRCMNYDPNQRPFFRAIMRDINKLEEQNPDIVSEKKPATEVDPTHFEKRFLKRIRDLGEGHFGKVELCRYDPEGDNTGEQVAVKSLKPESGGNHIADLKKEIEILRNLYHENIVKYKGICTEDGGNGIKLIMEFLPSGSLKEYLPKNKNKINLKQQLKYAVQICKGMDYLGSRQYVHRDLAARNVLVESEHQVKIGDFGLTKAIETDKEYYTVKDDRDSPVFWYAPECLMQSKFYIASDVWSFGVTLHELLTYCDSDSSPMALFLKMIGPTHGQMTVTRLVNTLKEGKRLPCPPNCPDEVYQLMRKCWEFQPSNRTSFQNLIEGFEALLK
Chain of UniProt O14976 (whole entry, looked up): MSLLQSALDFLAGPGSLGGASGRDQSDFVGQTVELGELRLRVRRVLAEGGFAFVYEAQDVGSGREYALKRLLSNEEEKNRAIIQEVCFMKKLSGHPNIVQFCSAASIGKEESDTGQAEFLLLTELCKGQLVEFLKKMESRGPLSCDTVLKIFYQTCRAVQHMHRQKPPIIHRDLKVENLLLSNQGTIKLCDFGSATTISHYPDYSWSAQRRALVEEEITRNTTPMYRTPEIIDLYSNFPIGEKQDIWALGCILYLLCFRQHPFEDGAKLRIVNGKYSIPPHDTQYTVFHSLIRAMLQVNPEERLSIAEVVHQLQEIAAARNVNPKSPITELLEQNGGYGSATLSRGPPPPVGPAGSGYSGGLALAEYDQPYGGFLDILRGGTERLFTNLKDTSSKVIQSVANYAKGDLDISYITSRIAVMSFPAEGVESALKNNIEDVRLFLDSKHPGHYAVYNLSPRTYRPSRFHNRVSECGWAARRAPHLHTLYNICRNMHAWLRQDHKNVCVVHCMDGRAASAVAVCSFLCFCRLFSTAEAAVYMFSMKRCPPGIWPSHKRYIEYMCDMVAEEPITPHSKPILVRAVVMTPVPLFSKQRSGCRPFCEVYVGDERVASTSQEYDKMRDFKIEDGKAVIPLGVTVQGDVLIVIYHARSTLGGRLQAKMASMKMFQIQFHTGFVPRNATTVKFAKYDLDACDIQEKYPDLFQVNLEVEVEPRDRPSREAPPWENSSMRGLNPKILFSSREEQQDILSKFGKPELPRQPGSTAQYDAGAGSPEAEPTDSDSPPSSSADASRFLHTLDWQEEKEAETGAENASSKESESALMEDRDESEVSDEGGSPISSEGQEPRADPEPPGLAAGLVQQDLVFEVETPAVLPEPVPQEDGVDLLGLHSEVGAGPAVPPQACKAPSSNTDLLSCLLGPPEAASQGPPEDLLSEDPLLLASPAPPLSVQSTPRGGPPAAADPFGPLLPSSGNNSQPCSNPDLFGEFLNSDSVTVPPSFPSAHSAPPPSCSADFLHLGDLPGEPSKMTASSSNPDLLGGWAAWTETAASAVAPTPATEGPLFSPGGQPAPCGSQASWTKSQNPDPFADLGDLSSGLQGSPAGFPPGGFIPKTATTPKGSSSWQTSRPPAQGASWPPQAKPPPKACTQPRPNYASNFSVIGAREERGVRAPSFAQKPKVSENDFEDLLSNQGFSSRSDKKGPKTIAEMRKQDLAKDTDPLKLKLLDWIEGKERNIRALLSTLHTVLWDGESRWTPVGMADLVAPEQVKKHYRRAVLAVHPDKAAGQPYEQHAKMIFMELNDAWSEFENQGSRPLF
Chain of UniProt Q9Y2H1 (whole entry, looked up): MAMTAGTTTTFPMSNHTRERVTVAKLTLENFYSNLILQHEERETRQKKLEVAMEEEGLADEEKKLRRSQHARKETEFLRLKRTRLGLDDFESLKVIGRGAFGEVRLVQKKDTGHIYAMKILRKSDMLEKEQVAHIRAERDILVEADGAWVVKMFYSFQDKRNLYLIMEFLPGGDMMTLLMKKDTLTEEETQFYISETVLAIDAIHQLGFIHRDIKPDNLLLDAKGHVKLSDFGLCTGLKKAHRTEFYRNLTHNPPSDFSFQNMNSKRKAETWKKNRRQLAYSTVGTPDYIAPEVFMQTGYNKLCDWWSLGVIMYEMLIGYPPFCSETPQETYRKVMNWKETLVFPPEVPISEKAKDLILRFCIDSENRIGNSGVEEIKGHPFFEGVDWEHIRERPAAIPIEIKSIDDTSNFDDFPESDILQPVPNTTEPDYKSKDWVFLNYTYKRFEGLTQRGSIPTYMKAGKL

Set 1
SMILES: NC(N)=NC(=O)c1nc(Cl)c(N2CCCCCC2)nc1N
Observed: β-arrestin recruitment
Action: agonist
Method: PRESTO-Tango
Tested at: 10 µM
Reference: untreated
Endpoint: fold over basal
GPR39 (Homo sapiens, UniProt O43194): 0.72
S1PR5 (Homo sapiens, UniProt Q9H228): 1.06
Probable G-protein coupled receptor 148 (GPR148, Homo sapiens, UniProt Q8TDV2): 1.87
PTGDR2 (Homo sapiens, UniProt Q9Y5Y4): 1.15
Metabotropic glycine receptor (GPR158, Homo sapiens, UniProt Q5T848): 0.6
SSTR5 (Homo sapiens, UniProt P35346): 0.75 fold
Mas-related G-protein coupled receptor member F (MRGPRF, Homo sapiens, UniProt Q96AM1): 1.04
Adhesion G protein-coupled receptor A2 (ADGRA2, Homo sapiens, UniProt Q96PE1): 0.82
PTGER4 (Homo sapiens, UniProt P35408): 0.75

Set 2
SMILES: C[C@H](c1ccnc(Nc2nc3ccc(-c4cc(N(C)C)ncn4)cc3[nH]2)c1)N1CCN(C(=O)CC(F)(F)F)CC1
Observed: cell-free assay
Method: competition with immobilised ligand
Tested at: 0.1 µM
Endpoint: remaining binding
Tyrosine-protein kinase JAK1, JH2 (JAK1, Homo sapiens, UniProt P23458): 100%
HIPK3 (Homo sapiens, UniProt Q9H422): 100%
ULK1 (Homo sapiens, UniProt O75385): 95%
BRAF (Homo sapiens, UniProt P15056, V600E): 100%
Tyrosine-protein kinase ABL1, non-phosphorylated (ABL1, Homo sapiens, UniProt P00519, T315I): 100%
PRKCQ (Homo sapiens, UniProt Q04759): 100%
GRK2 (Homo sapiens, UniProt P25098): 100%
ERBB3 (Homo sapiens, UniProt P21860): 88%
CDK18 (Homo sapiens, UniProt Q07002): 89%
GRK1 (Homo sapiens, UniProt Q15835): 90%
BMX (Homo sapiens, UniProt P51813): 100%
Tyrosine-protein kinase JAK1, JH1 (JAK1, Homo sapiens, UniProt P23458): 92%
MKNK1 (Homo sapiens, UniProt Q9BUB5): 92%
GAK (Homo sapiens, UniProt O14976): 95%
DYRK1B (Homo sapiens, UniProt Q9Y463): 84%
Tyrosine-protein kinase ABL1, non-phosphorylated (ABL1, Homo sapiens, UniProt P00519, F317L): 100%

Set 3
Structure (SMILES): O=C1CCC(N2Cc3cc(C4CCN(Cc5ccccc5)CC4)ccc3C2=O)C(=O)N1 (stereo not drawn)
Action: degrader
Endpoint: remaining protein
CRBN/Zinc finger protein Helios: CRBN/Zinc finger protein Helios (Homo sapiens, UniProt Q96SW2+Q9UKS7)
Chain of UniProt Q96SW2 (whole entry, looked up): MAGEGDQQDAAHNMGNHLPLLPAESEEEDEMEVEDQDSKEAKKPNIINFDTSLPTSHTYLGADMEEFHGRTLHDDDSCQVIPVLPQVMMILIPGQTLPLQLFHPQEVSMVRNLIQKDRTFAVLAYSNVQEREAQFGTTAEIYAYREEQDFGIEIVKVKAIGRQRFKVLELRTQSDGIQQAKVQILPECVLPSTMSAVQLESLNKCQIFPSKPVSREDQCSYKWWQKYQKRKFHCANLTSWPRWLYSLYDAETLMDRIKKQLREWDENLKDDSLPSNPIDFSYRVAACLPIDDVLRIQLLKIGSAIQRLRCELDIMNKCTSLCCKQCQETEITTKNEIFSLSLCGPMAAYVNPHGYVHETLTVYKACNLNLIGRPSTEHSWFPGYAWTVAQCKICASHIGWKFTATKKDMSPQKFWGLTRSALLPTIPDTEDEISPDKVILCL
Chain of UniProt Q9UKS7 (whole entry, looked up): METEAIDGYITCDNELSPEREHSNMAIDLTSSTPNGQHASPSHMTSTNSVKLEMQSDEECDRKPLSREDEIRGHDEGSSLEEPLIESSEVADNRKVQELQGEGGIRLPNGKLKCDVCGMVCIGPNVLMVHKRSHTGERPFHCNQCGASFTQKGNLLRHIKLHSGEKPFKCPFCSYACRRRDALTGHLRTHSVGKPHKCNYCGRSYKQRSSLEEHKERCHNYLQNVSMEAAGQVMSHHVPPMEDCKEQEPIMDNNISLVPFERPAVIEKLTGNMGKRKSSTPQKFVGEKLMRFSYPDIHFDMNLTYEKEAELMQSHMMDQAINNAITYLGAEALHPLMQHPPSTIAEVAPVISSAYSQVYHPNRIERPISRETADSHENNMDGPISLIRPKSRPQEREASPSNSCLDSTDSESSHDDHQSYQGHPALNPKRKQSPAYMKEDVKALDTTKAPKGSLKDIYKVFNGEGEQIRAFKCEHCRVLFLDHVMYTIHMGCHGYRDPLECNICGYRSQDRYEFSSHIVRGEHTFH
GSPT1: Eukaryotic peptide chain release factor GTP-binding subunit ERF3A (GSPT1, Homo sapiens, UniProt P15170)
Chain of UniProt P15170 (whole entry, looked up): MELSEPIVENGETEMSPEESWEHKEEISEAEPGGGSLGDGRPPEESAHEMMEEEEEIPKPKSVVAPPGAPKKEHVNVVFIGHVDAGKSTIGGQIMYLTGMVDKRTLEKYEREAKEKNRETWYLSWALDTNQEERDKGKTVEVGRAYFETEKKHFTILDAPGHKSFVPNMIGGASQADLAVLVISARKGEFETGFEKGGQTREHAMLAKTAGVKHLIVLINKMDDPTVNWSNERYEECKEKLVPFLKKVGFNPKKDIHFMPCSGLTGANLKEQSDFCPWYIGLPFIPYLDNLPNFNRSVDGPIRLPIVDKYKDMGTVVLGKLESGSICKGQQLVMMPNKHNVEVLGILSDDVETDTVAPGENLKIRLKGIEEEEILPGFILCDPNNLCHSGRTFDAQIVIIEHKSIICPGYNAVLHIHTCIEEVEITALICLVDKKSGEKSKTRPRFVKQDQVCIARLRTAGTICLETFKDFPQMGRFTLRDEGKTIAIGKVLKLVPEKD
CRBN/Zinc finger protein Helios; flow cytometry; primary human regulatory T cells; 0.3333 µM, 3 h: 92%
CRBN/Zinc finger protein Helios; flow cytometry; primary human regulatory T cells; 0.0004572 µM, 6 h: 110%
CRBN/Zinc finger protein Helios; flow cytometry; primary human regulatory T cells; 0.001372 µM, 6 h: 107%
Zinc finger protein Eos (IKZF4, Homo sapiens, UniProt Q9H2S9); HiBiT; HEK293; 0.03704 µM, 3 h: 124%
GSPT1; HiBiT; HEK293; 1.111 µM: 107% and 124%
CRBN/Zinc finger protein Helios; flow cytometry; primary human regulatory T cells; 0.1111 µM, 3 h: 87.6%
GSPT1; HiBiT; HEK293; 0.0001694 µM, 6 h: 110%

Set 4
Structure (SMILES): CC(C)S(=O)(=O)c1ccc2nccc(Nc3ccc4sc(C5CCCC5)nc4c3)c2c1
Observed: enzyme activity
Action: inhibitor
Tested at: 1 µM
Endpoint: activity vs control
STK38L (Homo sapiens, UniProt Q9Y2H1): 110%
Cyclin-dependent kinase 1, with cyclin B (CDK1, Homo sapiens, UniProt P06493): 80.5%
STK10 (Homo sapiens, UniProt O94804): 99%
CAMK1G (Homo sapiens, UniProt Q96NX5): 108%
PTK2B (Homo sapiens, UniProt Q14289): 106%
SBK1 (Homo sapiens, UniProt Q52WX2): 102%
CDC7 (Homo sapiens, UniProt O00311): 90%

For quick reference, copied from above (set 2):
BMX (Homo sapiens, UniProt P51813): 100%
Tyrosine-protein kinase JAK1, JH1 (JAK1, Homo sapiens, UniProt P23458): 92%
MKNK1 (Homo sapiens, UniProt Q9BUB5): 92%
GAK (Homo sapiens, UniProt O14976): 95%
DYRK1B (Homo sapiens, UniProt Q9Y463): 84%
